# Results gathered from unrelated publications.
# Each numbered part is a random draw from the data of one study; scales do not carry over between parts. Substitutions count along the parent as printed.

# Block 1 — method: RNA Bind-n-Seq; form: RNA; sample: in vitro; concentration: 365 nM; reference: no-protein control; reading: higher = stronger binding
# Target: RNA binding protein fox-1 homolog 2, RRM domain, GST-SBP tag (RBFOX2, Homo sapiens, UniProt O43251-10, residues 100-194)
# Notes: natural RNA segment, single round, ends assumed
# Shared flanks, not repeated: GGGAGUUCUACAGUCCGACGAUC … UGGAAUUCUCGGGUGCCAA
# Residues (chain): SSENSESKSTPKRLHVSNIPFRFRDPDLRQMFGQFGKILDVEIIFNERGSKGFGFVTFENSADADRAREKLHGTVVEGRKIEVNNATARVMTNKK
Strand,RBNS enrichment (R)
GCUAUAGGAAGAGGCCAUACCUAGAGCCAAGAACCAUGAAGGCCUGAGAGACGGCAGACUGAGCAGAAUUCCUUUUUUGAGCACGAGAGCAUUACUAGAACCAUUGUCAA,2.55
UCUAUUUUUAAAUCUUCUCUUAAAUAUACUGAGAAUCUCUAGUCUCCUUUUCUAAAGGCUGAUCCAACUACACUUGUGGGCUAUUUUUCCAAGCUUUGUGUGAAACUUGA,0.576
UUUCAGAAAUUAUUUUAAAAGAUGCAUAGUAAAACAGUGUUUUCCUAUGGUAAGCAAAUAAGAAUGAAGUUUGUAGGGAAUAUUUGGAAUGAUUAAUAUAAAUUAGUAUA,1.07
AUUUAAACGACUGGUCCAAAUUUUGCCUUCAGUUACAAGUCUGUGGCUCUCAUUUGCCUCCUCAGAAGAGUGGGACAGGGCUCCAUGGGAGACCCAGAGUUCAGGCUACA,0.274
UAUAGAACGGAUGUUUAGGUGAAGAAAUUGGUUCUUGGUUAUGUUUACAGCACUUGGGAUUGUGUUUUCUUGUACAUUUUGUAUUUUAAAAAUCUUUUAUAGGAGUGCAG,0.572
CGCCUCCCCCAGGGACCGGCGGACCCCAGCCAUCCAGGGGGCAAGAGGAAUUACGUGCUCUGUGGGUCUCCCCCAACGCGCCUCGCCGGAUCUGAGGGAGAACAAGACCG,0.394
UUUGAGCCUGGGAAAUAAGCCCCCUCAACUACCAUUCCUUCUUUAAACACUCUUCAGAGAAAUCUGCAUUCUAUUUCUCAUGUAUAAAACUAGGAAUCCUCCAACCAGGC,5.79
AUAGAUAGUUUAGUCAACAUCCCCAUCUUGUGUCAAUCUGGACUCAGAGGAAGGAGUCAGCAUCCUGAGCAUCCAGAAGAUUCAUGGAACCUGAAGUUGCCUCUGGAGCC,0.433
ACCACGCCCAGCUAAUAUUUUGUAUUUUCAGUAGGGACGGGGUUACACCAUGUUGGCCAGGCUGGUCUCGAACUCCUGACCUCAAGUGAUCCACCCGCCUCAGUCUCCCA,0.288
AGACUGACAUGAUAAAAUAUCAUGUUCCUAAUCUGUUGUCUCAGAUAAGUGACCAAGACGGGACUUUCCACAUUUUAGUCUACAUUCUAAUCUUAAAGGAAUAAAGCACU,0.434
UGGGUGGUAGUUCCAAAGACACUACUAAUGUGCAGAGAGCGCUCCGGCCUCUGGUGCUGGCCACUACUGUUUCCUGUCAGUCAGAUCUGUGAUAAUGGUUGGAAGGAUGU,0.397
UGACUUAUCAGUGCCCAUCACUAUCUGGCGUUCUGAAAGUCCCAUAGAAAAGUGUCAGGAAAGCAACGUCAUCAAGGAUAUAAAGAGAAAGGAGAAAGAGCAAGAUGAGG,0.715

# Block 2 — target: ATF3, bZIP domain (human); method: DHFR protein complementation; sample: yeast; reference: wild-type JUN-FOS pair; reading: higher = stronger binding
# Notes: single substitutions, most at no-binding floor
# Parent: JUN, bZIP domain (human); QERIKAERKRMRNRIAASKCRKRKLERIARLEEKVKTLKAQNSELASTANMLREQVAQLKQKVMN; partner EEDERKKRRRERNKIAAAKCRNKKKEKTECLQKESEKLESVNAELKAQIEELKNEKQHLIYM
Substitution,binding fitness
A40F,-0.215 natural log
T37V,-0.0566 natural log
L38G,-1.08 natural log
S43I,-0.135 natural log
R30I,-0.0662 natural log
E44G,-0.413 natural log
E54W,-0.452 natural log
R30Y,-0.13 natural log
Q41S,-1.22 natural log
L31G,-1.08 natural log
A40T,-0.0207 natural log
L45Y,-0.416 natural log
S43W,-0.23 natural log
S43N,-0.0621 natural log
R30H,-0.0769 natural log
L45I,-1.05 natural log
N42E,-0.512 natural log

# Block 3 — method: DHFR PCA, deep sequencing; sample: yeast; added: (+)-ABA 200 µM; reference: wild-type fitted maximum; reading: higher = stronger binding
# Target: ABI1, truncated, D143A, DHFR fusion (Arabidopsis thaliana)
# Notes: methotrexate growth selection, single substitutions
# Parent: PYL1, truncated, DHFR fusion (Arabidopsis thaliana); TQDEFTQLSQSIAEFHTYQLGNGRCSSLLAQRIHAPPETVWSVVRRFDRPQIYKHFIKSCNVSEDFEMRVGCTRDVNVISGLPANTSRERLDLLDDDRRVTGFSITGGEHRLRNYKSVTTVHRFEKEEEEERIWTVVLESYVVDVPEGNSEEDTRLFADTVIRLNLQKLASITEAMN; partner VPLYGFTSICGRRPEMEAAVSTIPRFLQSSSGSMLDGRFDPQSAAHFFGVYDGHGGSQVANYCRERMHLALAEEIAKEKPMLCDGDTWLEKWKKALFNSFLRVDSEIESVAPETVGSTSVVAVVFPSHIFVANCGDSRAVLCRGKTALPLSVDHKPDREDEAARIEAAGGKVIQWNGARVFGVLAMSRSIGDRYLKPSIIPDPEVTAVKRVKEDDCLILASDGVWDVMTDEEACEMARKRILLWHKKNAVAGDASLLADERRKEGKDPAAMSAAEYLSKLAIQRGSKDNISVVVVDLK
Substitution,relative binding score
L91I,33.2%
E109C,90.9%
R45S,85.2%
Y115M,52.6%
E127A,101%
S117H,25.6%
G21V,99.4%
S104L,33.6%
T86L,89.7%
S42Q,107%
E139H,86%
F103T,-5.6%
L138P,-9.09%

# Block 4 — target: CCNB1, cyclin fold, Cln2 fusion (human); method: yeast growth competition, sequencing; sample: yeast; notes: strong parent motif; reference: not given; reading: higher = stronger binding
# Parent: RBL2 docking peptide (human); STTRRRLFVENDS
Substitution,normalised enrichment score
STTRRRLFVFNDS [E10F],0.275
STTRRRLFVENQS [D12Q],0.441
STTRLRLFVENDS [R5L],0.671
STTRRRLRVENDS [F8R],-0.027
STTRRRLFKENDS [V9K],0.742
STTRRRLFSENDS [V9S],1.31
STDRRRLFVENDS [T3D],0.697
STTRRRQFVENDS [L7Q],-0.0963
STTRRRLFVSNDS [E10S],1.03
MTTRRRLFVENDS [S1M],0.918
STTRARLFVENDS [R5A],-0.283
SQTRRRLFVENDS [T2Q],1.34
STTRRRLFVEVDS [N11V],1.07
STTRRHLFVENDS [R6H],0.185
ETTRRRLFVENDS [S1E],0.48
STTRRRLFVENDH [S13H],0.764
STTRRRLFVENDA [S13A],0.927
STTRRRLFVENDL [S13L],0.0863
STTHRRLFVENDS [R4H],0.169
STTRRRLSVENDS [F8S],2.57
STTRRRLFVPNDS [E10P],1.21
STTRRRLGVENDS [F8G],0.466
STTRRRWFVENDS [L7W],0.85
STTRRRLFVENYS [D12Y],1
STTRRRLFVEIDS [N11I],0.631

# Block 5 — target: UBE2E1 UBC core domain (UniProt P51965); method: yeast two-hybrid; sample: yeast; notes: mostly zero background; reference: not given; reading: higher = stronger interaction
# Chain of UniProt P51965 (whole entry, looked up): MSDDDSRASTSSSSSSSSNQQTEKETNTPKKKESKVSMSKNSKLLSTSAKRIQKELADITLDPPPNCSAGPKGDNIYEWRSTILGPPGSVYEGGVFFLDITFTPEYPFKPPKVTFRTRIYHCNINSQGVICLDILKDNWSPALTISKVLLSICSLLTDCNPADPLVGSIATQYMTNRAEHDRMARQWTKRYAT
# B1: RC3H1 RING domain (UniProt Q5TC82); chain QAPQWTDFLSCPICTQTFDETIRKPISLGCGHTVCKMCLNKLHRKACPFDQTTINTDIELL
# B2: TRIM5 RING domain (UniProt Q9C035); chain LREVKLSPEGQKVDHCARHGEKLLLFCQEDGKVICWLCERSQEHRGHHTFLTEEVAREYQVKL
# B3: TRAF5 RING domain (UniProt O00463); chain FVERLEERYKCAFCHSVLHNPHQTGCGHRFCQHCILSLRELNTVPICPVDKEVIKSQEVFK
# B4: TRIM43 RING domain (UniProt Q96BQ3); chain FSHAFQKELTCVICLNYLVDPVTICCGHSFCRPCLCLSWEEAQSPANCPACREPSPKMDFKT
# B5: TRIM5 RING domain (UniProt Q9C035); chain ILVNVKEEVTCPICLELLTQPLSLDCGHSFCQACLTANHKKSMLDKGESSCPVCRISYQPENIRP
# B6: RNF208 RING domain (UniProt Q9H0X6); chain SSAAAGEPLECPTCGHSYNVTQRRPRVLSCLHSVCEQCLQILYESCPKYKFISCPTCRRETVLFTDYG
# B7: TRIM24 RING domain (UniProt O15164); chain EAARLNLLDTCAVCHQNIQSRAPKLLPCLHSFCQRCLPAPQRYLMLPAPMLGSAETPPPVPAPGSPVSGSSPFATQVGVIRCPVCSQECAERHII
# B8: DTX4 RING domain (UniProt Q9Y2E6); chain QKVRHPPDEDCTICMERLTAPSGYKGPQPTVKPDLVGKLSRCGHVYHIYCLVAMYNNGNKDGSLQCPTCKTIYGVKTGTQ
# B9: VPS41 RING domain (UniProt P49754); chain KGVLVDEENICESCLSPILPSDAAKPFSVVVFHCRHMFHKECLPMPSMNSAAQFCNICSAKNRGPGSAI
# B10: TRIM40 RING domain (UniProt Q6P9F5); chain LQKDNQEEGVCPICQESLKEAVSTNCGHLFCRVCLTQHVEKASASGVFCCPLCRKPCSEEVLG
Sequence,lacZ reporter activity
B1 (RC3H1 RING domain),0
QVDKAVFHMQSVKCLKCQEQKRAVLPCQHAALCELCAEGSECPICQPGRAHTLQS (UNK RING domain (UniProt Q9C0B0)),0
MPIRALCTICSDFFDHSRDVAAIHCGHTFHLQCLIQWFETAPSRTCPQCRIQVGKRTIIN (TRAIP RING domain (UniProt Q9BWF2)),0
B2 (TRIM5 RING domain),0
B3 (TRAF5 RING domain),0
B4 (TRIM43 RING domain),0
B5 (TRIM5 RING domain),0
FQGDVDEDLICPICSGVLEEPVQAPHCEHAFCNACITQWFSQQQTCPVDRSVVTVAHLRP (RNF41 RING domain (UniProt Q9H4P4)),0
B6 (RNF208 RING domain),0
B7 (TRIM24 RING domain),0
ASLPTSEEDLCPICYAHPISAVFQPCGHKSCKACINQHLMNNKDCFFCKTTIVSVEDWE (RNF123 RING domain (UniProt Q5XPI4)),0
B8 (DTX4 RING domain),0
B9 (VPS41 RING domain),0
B10 (TRIM40 RING domain),0

# Excerpt of the above (block 3):
Substitution,relative binding score
R45S,85.2%
Y115M,52.6%
E127A,101%
S117H,25.6%
G21V,99.4%
S104L,33.6%
T86L,89.7%
S42Q,107%
E139H,86%
